{"data": "Published values of several laboratories", "note": "Each line is one published result; not all experiments were run side by side.", "UniProt P06493, sequence (whole entry, looked up)": "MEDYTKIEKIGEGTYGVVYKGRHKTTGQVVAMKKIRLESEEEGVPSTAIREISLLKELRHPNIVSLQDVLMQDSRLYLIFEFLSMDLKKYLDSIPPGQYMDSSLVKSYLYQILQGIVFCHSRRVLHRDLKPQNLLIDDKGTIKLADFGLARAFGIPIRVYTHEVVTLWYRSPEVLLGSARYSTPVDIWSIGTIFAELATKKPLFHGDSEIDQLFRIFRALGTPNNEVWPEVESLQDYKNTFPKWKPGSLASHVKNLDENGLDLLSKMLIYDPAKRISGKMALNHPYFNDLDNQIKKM"}
{"SMILES": "CCCCC(=O)Nc1ccc(-c2ccc3ncn(CCC)c(=O)c3c2)cn1", "target": "Tyrosine-protein kinase ABL1, non-phosphorylated (ABL1, Homo sapiens, UniProt P00519, T315I)", "assay": "binding, competition with immobilised ligand", "conditions": "0.5 µM", "measurement": "remaining binding", "result": "96%"}
{"SMILES": "COc1cc(-c2cncc3c2CN(C)Cc2cc(N4CCNCC4)ccc2-3)cc(OC)c1OC", "target": "ABL1 (Homo sapiens, UniProt P00519, T315I)", "assay": "enzyme activity, inhibitor", "conditions": "1 µM", "measurement": "remaining activity", "result": "109%"}
{"SMILES": "Nc1ncnc2occ(-c3ccc(NC(=O)Nc4cc(C(F)(F)F)ccc4F)cc3)c12", "target": "Tyrosine-protein kinase ABL1, phosphorylated (ABL1, Homo sapiens, UniProt P00519, Q252H)", "assay": "cell-free assay, inhibitor", "conditions": "20 µM", "measurement": "remaining signal", "result": "1.3%"}
{"SMILES": "CNc1ncc2c(/C=C/C(=O)N3CCC(OC)CC3)nn(Cc3cccc(C(F)(F)F)c3)c2n1", "target": "Cyclin-dependent kinase 1, with cyclin B1 (CDK1, Homo sapiens, UniProt P06493)", "assay": "enzyme activity, inhibitor, radiometric", "conditions": "1 µM", "measurement": "remaining activity", "result": "86%"}
{"SMILES": "Cc1cc([C@@H](C)Nc2ccccc2C(=O)O)c2nc(N3CCC(F)(F)CC3)c(C#N)c(=O)n2c1", "target": "Tyrosine-protein kinase ABL1, phosphorylated (ABL1, Homo sapiens, UniProt P00519, E255K)", "assay": "binding, competition with immobilised ligand", "conditions": "10 µM", "measurement": "remaining binding", "result": "97%"}
{"SMILES": "C1=C/COCc2cc(ccc2OCCN2CCCC2)Nc2nccc(n2)-c2cccc(c2)COC/1", "target": "Tyrosine-protein kinase ABL1, non-phosphorylated (ABL1, Homo sapiens, UniProt P00519)", "assay": "binding", "conditions": "0.1 µM", "measurement": "remaining binding", "result": "23%"}
{"SMILES": "CN(c1nccc(-c2cnn3ncccc23)n1)C1CC1", "target": "ABL1 (Homo sapiens, UniProt P00519, H396P)", "assay": "binding", "conditions": "1 µM", "measurement": "remaining binding", "result": "99%"}
{"SMILES": "COc1cc(-c2cc(-c3ccc(N4CCNCC4)cc3)cnc2N)cc(OC)c1OC", "target": "ABL1 (Homo sapiens, UniProt P00519, Q252H)", "assay": "enzyme activity, inhibitor", "conditions": "0.1 µM", "measurement": "inhibition", "result": "87%"}
{"SMILES": "C=CC(=O)N1CCC(COCC(=O)N2CCN(c3nc(-c4cnc(N)nc4C(F)F)nc(N4CCOC[C@@H]4C)n3)CC2)CC1", "target": "Tyrosine-protein kinase ABL1, phosphorylated (ABL1, Homo sapiens, UniProt P00519, M351T)", "assay": "binding, competition with immobilised ligand", "conditions": "1 µM", "measurement": "remaining binding", "result": "78%"}
{"note": "For quick reference, copied from above:"}
{"SMILES": "Cc1cc([C@@H](C)Nc2ccccc2C(=O)O)c2nc(N3CCC(F)(F)CC3)c(C#N)c(=O)n2c1", "target": "Tyrosine-protein kinase ABL1, phosphorylated (ABL1, Homo sapiens, UniProt P00519, E255K)", "assay": "binding, competition with immobilised ligand", "conditions": "10 µM", "measurement": "remaining binding", "result": "97%"}
{"SMILES": "C1=C/COCc2cc(ccc2OCCN2CCCC2)Nc2nccc(n2)-c2cccc(c2)COC/1", "target": "Tyrosine-protein kinase ABL1, non-phosphorylated (ABL1, Homo sapiens, UniProt P00519)", "assay": "binding", "conditions": "0.1 µM", "measurement": "remaining binding", "result": "23%"}
